Experimental data collected from several papers.
± marks the error that the study gave.

| Molecule | target | test | test system | setting | how to read | quantity | result |
| --- | --- | --- | --- | --- | --- | --- | --- |
| NCCCCCCCCNS(=O)(=O)c1cccc2c(I)cccc12 | anoctamin-2 rat | Ca2+-activated Cl- current | HEK293 transfected | 50 µM, -70 mV, added: free Ca2+ 7.5 µM | – | current inactivation | decreased |
| LEQKAASCHNSYIVLAIENSFMTSFSK | VEGFR-3-Fc, recombinant, mouse | pull-down, western blot | peptide | concentration not given, 2 h, pH 7.4, 4 °C | – | binding | inhibited |
| CC(C)C[C@H](NC(=O)[C@@H]1CCCN1C(=O)[C@H](CC(=O)O)NC(=O)[C@H](CO)NC(=O)[C@H](C)NC(=O)CC1c2ccccc2-c2ccccc21)C(=O)NCC(=O)N[C@H](C(=O)N[C@H](C(=O)N[C@@H](CCCNC(=N)N)C(=O)N1CCC[C@H]1C(=O)N[C@@H](CCCNC(=N)N)C(=O)N[C@@H](C)C(N)=O)C(C)C)C(C)C | Klotho (mouse) | binding, size-exclusion affinity selection LC-MS/MS | – | 50 ng, added: 50 µg Klotho | – | recovery | 0.5% |
| O=C1c2c(O)cc(O)cc2O[C@H](c2cc(O)c(O)c(O)c2)[C@H]1O | GABAA receptor, rat | tonic current enhancement, positive allosteric modulator, whole-cell patch clamp | hippocampal neurons, cultured | DIV14, no ethanol | – | EC50 | ~200 nM |
| Nc1nc2sc(CCc3ccc(C(=O)N[C@@H](CCC(=O)O)C(=O)O)cc3)cc2c(=O)[nH]1 | human folate receptor beta | – | D4 | concentration not given, added: [3H]folic acid | reference: folic acid | relative binding affinity | < 0.01 |
| AALNGPV | human syntenin PDZ1-2 tandem | binding, proteomic peptide phage display | peptide | phage pools rounds 4 and 5 | higher = stronger enrichment | NGS read count | 765 |
| Cc1ccc(Cl)cc1NC(=O)c1cc(-c2ccc(F)c(O)c2)on1 | mitochondrial permeability transition pore, mouse | mitochondrial swelling inhibition | isolated mouse liver mitochondria | added: Ca2+ | – | EC50 | 0.134 ± 0.016 nM |
| CC(C)(O)c1cn(-c2ccc(-c3cc(F)c(CO)c(S(C)(=O)=O)c3)cc2F)c(C(C)(C)c2c(Cl)cccc2Cl)n1 | nuclear hormone receptors except PXR | agonist | cells | – | – | EC50 | > 10000 nM |
| COc1ccc(-c2cc(C(=O)Nc3cc(Cl)cnc3C)no2)cc1O | mitochondrial permeability transition pore, mouse | mitochondrial swelling inhibition | isolated mouse liver mitochondria | added: Ca2+ | – | EC50 | 10.5 ± 1.1 nM |
| O=c1c(O)c(-c2ccc(O)cc2)oc2cc(O)cc(O)c12 | class IIa HDAC | enzyme activity | bovine heart lysate | – | – | IC50 | 48 µM |
| RWFYFN / DRGSGK / WEKRWD (cyclic) | α-synuclein | amyloid formation, inhibitor, circular dichroism | peptide | 2 molar equivalents, pH 6.6, 37 °C, added: HFIP 2 vol-% | reference: uninhibited control | β-structure formation | 80 ± 7% |
| C=CC(C)(O)Cc1cc(CC(=O)c2ccc(O)cc2O)c(O)cc1O (centres unmarked) | quinone reductase | inducer | Hepa1c1c7 | – | – | concentration doubling activity | > 20 µM |
| Cc1cc(O)c2c(c1)C(=O)c1cc(O)cc(O)c1C2=O | class IIb HDAC | enzyme activity | bovine heart lysate | – | – | IC50 | 29 µM |
| Afamelanotide | spotted gar MC3R with MRAP2 | cAMP reporter gene, agonist | CHO | 4 h, 37 °C | – | EC50 | 0.063 ± 0.013 nM |
| SRREWYV | human syntenin PDZ1-2 tandem | binding, proteomic peptide phage display | peptide | phage pools rounds 4 and 5 | higher = stronger enrichment | NGS read count | 300 |
| RGAVVTGR-NH2 (C-amide) | α-synuclein | inhibitor, ThT fluorescence | peptide | 2 molar equivalents, pH 6.6, 37 °C, added: HFIP 2 vol-% | reference: uninhibited control | amyloid formation | 91 ± 15% |
| COc1cc(/C=C/C(=O)O)cc(OC)c1O | BCRP (ABCG2), rat | protein expression, western blot | Wistar rats, liver | 40 mg/kg | reference: untreated rats | inhibition | 81% |
| O=CCCCC=O | lysine-containing peptide | mass spectrometry | – | 24 h, pH 10.2, room temperature | – | maximal peptide depletion | -55.1% |
| CC[C@H](C)[C@H](NC(=O)[C@@H]1CCCN1C(=O)[C@H](CC(=O)O)NC(=O)CNC(=O)[C@@H]1CCCN1C(=O)[C@H](CCC(=O)O)NC(=O)[C@H](C)NC(=O)[C@H](CCSC)NC(=O)[C@H](CC(C)C)NC(=O)[C@H](CO)NC(=O)[C@H](CCCCN)NC(=O)[C@H](CCCCN)NC(=O)[C@H](C)NC(=O)[C@@H](N)CCSC)C(=O)N1CCC[C@H]1C(=O)N[C@@H](CCCNC(=N)N)C(=O)N1CCC[C@H]1C(=O)N[C@@H](CCCNC(=N)N)C(=O)N[C@@H](CCCCN)C(=O)N[C@@H](CCCCN)C(=O)N[C@@H](CCCNC(=N)N)C(=O)N[C@@H](Cc1ccc(O)cc1)C(=O)N[C@@H](CCCNC(=N)N)C(=O)N1CCC[C@H]1C(=O)NCC(=O)N[C@H](C(=O)N[C@H](C(=O)N[C@@H](C)C(=O)N[C@@H](CC(C)C)C(=O)N[C@@H](CCCNC(=N)N)C(=O)N[C@@H](CCCCNC(=O)CCCC[C@@H]1SC[C@@H]2NC(=O)N[C@@H]21)C(=O)O)[C@@H](C)O)[C@@H](C)O | Sim3-FLAG | biotinylated peptide pull-down | Schizosaccharomyces pombe, cell extract | concentration not given | reference: wild-type cell extract | relative binding | 1 |
| O=P(O)(O)OC[C@H]1OC(O)[C@H](O)[C@@H](O)[C@@H]1O (some centres unmarked) | Medicago sativa sucrose-phosphate synthase | enzyme activity, allosteric activator | leaf extract | pH 7.2, added: 10 mM fructose 6-phosphate, 12 mM UDP-glucose | – | activation constant | 2.1 ± 0.5 mM |
| CC1(C)CC(=O)C2=C(C1)Oc1ncnc(Nc3ccc([N+](=O)[O-])cc3)c1C2c1ccccc1F (centres unmarked) | calf thymus DNA | UV-visible absorption titration | – | 20 µM, about 2% DMSO | – | binding constant | 1e+06 M⁻¹ |

| Molecule | target | test | test system | setting | how to read | quantity | result |
| --- | --- | --- | --- | --- | --- | --- | --- |
| C=CC(C)(CO)c1cc(CC(=O)c2ccc(O)cc2O)c(O)cc1O (centres unmarked) | quinone reductase | inducer | Hepa1c1c7 | – | – | concentration doubling activity | > 20 µM |
| bombesin | Yes kinase, rat | Western blot, measured: Yes pY416 | pancreatic acini | 1 nM, 1 min | reference: untreated control | phosphorylation level | 213 ± 17% |
| LYAADKH | human syntenin PDZ1-2 tandem | binding, proteomic peptide phage display | peptide | phage pools rounds 4 and 5 | higher = stronger enrichment | NGS read count | 213 |
| Cc1c(Cl)cccc1NC(=O)c1cc(-c2ccc(F)c(O)c2)on1 | mitochondrial permeability transition pore, mouse | mitochondrial swelling inhibition | isolated mouse liver mitochondria | added: Ca2+ | – | EC50 | 0.89 ± 0.141 nM |
| N[C@@H](C(=O)O)[C@H](O)[C@@]1(C(=O)O)CC[C@H](C[C@H](NC(=O)c2cc(Cl)c(O)c(Cl)c2)C(=O)O)N1 | rat cortex NMDA receptor | ion current, antagonist, two-electrode voltage clamp | Xenopus oocytes | pH 7.4, added: NMDA + glycine 100 µM | – | Kb | 0.0116 µM |
| CC12CCCn3ccc(c31)-c1ccccc1NC(=O)CC2 (centres unmarked) | tubulin (bovine brain) | tubulin spiral formation, centrifugation | – | 20 min, 30 °C, 4% DMSO, added: GTP and glutamate | – | EC50 | 27000 ± 3000 nM |
| CC(=O)c1ccc(O)cn1 | quinone reductase | inducer | Hepa-1c1c7 | 48 h | – | concentration doubling activity | 48.5 µM |
| CC(=O)OCCOC(C)=O | lysine-containing peptide | mass spectrometry | – | 24 h, pH 10.2, room temperature | – | maximal peptide depletion | -30.2% |
| SQFPPGF | human syntenin PDZ1-2 tandem | binding, proteomic peptide phage display | peptide | phage pools rounds 4 and 5 | higher = stronger enrichment | NGS read count | 125 |
| CCc1ccc(NC(=O)Nc2c[nH]c3ccccc23)cc1 | human STING N154S | immunoblot, measured: pSTING, TBK1, IRF3 | SAVI patient fibroblasts | 1 and 2 µM, added: cGAMP 3 h | – | STING pathway phosphorylation | no effect |
| GHRNGLE | human syntenin PDZ1-2 tandem | binding, proteomic peptide phage display | peptide | phage pools rounds 4 and 5 | higher = stronger enrichment | NGS read count | 110 |
| Nc1nc2c(ncn2[C@@H]2O[C@@H]3COP(=O)(O)O[C@H]3[C@H]2O)c(=O)[nH]1 | rod cGMP-gated channel | ion current, agonist, inside-out patch clamp | – | -40 mV, added: calmodulin 200 nM | – | EC50 | 39400 nM |
| QDAKLIS | human syntenin PDZ1-2 tandem | binding, proteomic peptide phage display | peptide | phage pools rounds 4 and 5 | higher = stronger enrichment | NGS read count | 146 |
| COCc1ccc(C=O)[nH]1 | quinone reductase | inducer | Hepa-1c1c7 | 48 h | – | concentration doubling activity | > 100 µM |
| COc1ccc2cc3[n+](cc2c1OC)CCc1cc2c(cc1-3)OCO2 | class IIb HDAC | enzyme activity | bovine heart lysate | – | – | IC50 | 69 µM |
| KPQTMER | human syntenin PDZ1-2 tandem | binding, proteomic peptide phage display | peptide | phage pools rounds 4 and 5 | higher = stronger enrichment | NGS read count | 132 |
| CN1CCN(CCCN2c3ccccc3Sc3ccc(C(F)(F)F)cc32)CC1 | anoctamin-2 rat | Ca2+-activated Cl- current | HEK293 transfected | 20 µM, 10 to 70 min, -70 mV | – | current density | 166 ± 24 pA/pF |
| CCOC(=O)N1c2ccc(C(F)(F)F)cc2[C@@H](N(Cc2cc(C(F)(F)F)cc(C(F)(F)F)c2)C(=O)OC)C[C@H]1CC | CETP, human | – | human plasma | 0.1 to 10 µM, 21 h | – | pre-beta-HDL formation decrease | > 46% |
| O=C(O)/C=C/c1ccc(O)c(O)c1 | class IIb HDAC | enzyme activity | bovine heart lysate | – | – | IC50 | 120 µM |
| LEQKAASAHNSYIVLCIENSFMTSFSK | VEGFR-3-Fc, recombinant, mouse | pull-down, western blot | peptide | concentration not given, 2 h, pH 7.4, 4 °C | – | binding | inhibited |

For quick reference, copied from above:
| Molecule | target | test | test system | setting | how to read | quantity | result |
| --- | --- | --- | --- | --- | --- | --- | --- |
| RGAVVTGR-NH2 (C-amide) | α-synuclein | inhibitor, ThT fluorescence | peptide | 2 molar equivalents, pH 6.6, 37 °C, added: HFIP 2 vol-% | reference: uninhibited control | amyloid formation | 91 ± 15% |
| COc1cc(/C=C/C(=O)O)cc(OC)c1O | BCRP (ABCG2), rat | protein expression, western blot | Wistar rats, liver | 40 mg/kg | reference: untreated rats | inhibition | 81% |
| O=CCCCC=O | lysine-containing peptide | mass spectrometry | – | 24 h, pH 10.2, room temperature | – | maximal peptide depletion | -55.1% |
| CC[C@H](C)[C@H](NC(=O)[C@@H]1CCCN1C(=O)[C@H](CC(=O)O)NC(=O)CNC(=O)[C@@H]1CCCN1C(=O)[C@H](CCC(=O)O)NC(=O)[C@H](C)NC(=O)[C@H](CCSC)NC(=O)[C@H](CC(C)C)NC(=O)[C@H](CO)NC(=O)[C@H](CCCCN)NC(=O)[C@H](CCCCN)NC(=O)[C@H](C)NC(=O)[C@@H](N)CCSC)C(=O)N1CCC[C@H]1C(=O)N[C@@H](CCCNC(=N)N)C(=O)N1CCC[C@H]1C(=O)N[C@@H](CCCNC(=N)N)C(=O)N[C@@H](CCCCN)C(=O)N[C@@H](CCCCN)C(=O)N[C@@H](CCCNC(=N)N)C(=O)N[C@@H](Cc1ccc(O)cc1)C(=O)N[C@@H](CCCNC(=N)N)C(=O)N1CCC[C@H]1C(=O)NCC(=O)N[C@H](C(=O)N[C@H](C(=O)N[C@@H](C)C(=O)N[C@@H](CC(C)C)C(=O)N[C@@H](CCCNC(=N)N)C(=O)N[C@@H](CCCCNC(=O)CCCC[C@@H]1SC[C@@H]2NC(=O)N[C@@H]21)C(=O)O)[C@@H](C)O)[C@@H](C)O | Sim3-FLAG | biotinylated peptide pull-down | Schizosaccharomyces pombe, cell extract | concentration not given | reference: wild-type cell extract | relative binding | 1 |
| O=P(O)(O)OC[C@H]1OC(O)[C@H](O)[C@@H](O)[C@@H]1O (some centres unmarked) | Medicago sativa sucrose-phosphate synthase | enzyme activity, allosteric activator | leaf extract | pH 7.2, added: 10 mM fructose 6-phosphate, 12 mM UDP-glucose | – | activation constant | 2.1 ± 0.5 mM |
